Measured values collected from several papers.
Protocols differ between the studies behind these lines. ± gives the spread as reported.
Organism: influenza A virus

For COc1cc(-c2oc3cc(O[C@@H]4O[C@@H](C)[C@H](O)[C@@H](O)[C@H]4O)cc(O)c3c(=O)c2O[C@@H]2O[C@H](CO[C@@H]3O[C@@H](C)[C@H](O)[C@@H](O)[C@H]3O)[C@@H](O)[C@H](OC(C)=O)[C@H]2O)ccc1O, the IC50 was 152 ± 3 µM (hemagglutination; A/Vladivostok/2/09 (H1N1)).
The EC50 of OC12CC3CC(C1)CC(NCc1cnc(N4CCCCC4)nc1)(C3)C2 is reported as 4.5 ± 1.9 µM (plaque reduction; MDCK ST6Gal I, A/WSN/33 (H1N1); 2 days).
COc1cc(-c2oc3cc(O)cc(O)c3c(=O)c2O[C@@H]2O[C@H](CO)[C@@H](O)[C@H](O)[C@H]2OC(=O)c2cc(O)c(O)c(O)c2)ccc1O has an IC50 of 176 to 191 µM (hemagglutination; virus panel; range over panel).
With Cc1cc(-c2ccccc2)nc2nc(C(=O)Nc3sc4c(c3C(N)=O)CCCCC4)nn12 the EC50 was 8 ± 2 µM (plaque formation, plaque reduction; MDCK, A/PR/8/34).
CCC1(O)C([N+](=O)[O-])=NNc2ncnn21 (stereo not drawn) has a selectivity index of 2 (MDCK, A/Puerto Rico/8/34 (H1N1); baseline: CC50 over IC50).
Cc1cn(C2CC(N(C)C)C(CO)O2)c(=O)[nH]c1=O (stereo not drawn) has an EC50 of over 0.37 µM (viral cytopathic effect; MDCK, H3N2).
The IC50 of COc1cc(-c2oc3cc(O)cc(O)c3c(=O)c2O[C@@H]2O[C@H](CO)[C@@H](O)[C@H](OC(C)=O)[C@H]2O)ccc1O is reported as 157 ± 2.1 µM (hemagglutination; A/Vladivostok/2/09 (H1N1)).
The EC50 of O=C1/C(=N\NC(=S)NN=Cc2cccs2)c2ccccc2N1Cc1ccccc1 is reported as over 4 µM (cytopathic effect, visual CPE score; MDCK, H1N1).
The EC50 of CCCCCCCCCC(=O)OCC1OC(n2cc(C)c(=O)[nH]c2=O)CC1N(C)C (stereo not drawn) is reported as over 0.23 µM (viral cytopathic effect; MDCK, H3N2).
The selectivity index of CCC1(O)C([N+](=O)[O-])=NNc2nc(C)nn21 (stereo not drawn) is reported as 4 (MDCK, A/Puerto Rico/8/34 (H1N1); baseline: CC50 over IC50).
With Cc1cc(-c2ccccc2)n2nc(-c3nc4sc5c(c4c(=O)o3)CCCCC5)nc2n1 the EC50 was 26 ± 1 µM (plaque formation, plaque reduction; MDCK, A/PR/8/34).
With CCC1(O)C([N+](=O)[O-])=NNc2nc(SC)nn21 (stereo not drawn) the selectivity index was 13 (MDCK, A/Puerto Rico/8/34 (H1N1); baseline: CC50 over IC50).
For c1nc(N2CCCCC2)ncc1CNC12CC3CC(CC(C3)C1)C2, the EC50 was 1.5 ± 0.6 µM (cytopathic effect; MDCK, A/WSN/33 H1N1; 48 h).
CCOC(=O)c1cnn2c1NN=C([N+](=O)[O-])C2(C)O (stereo not drawn) has a selectivity index of 2 (MDCK, A/Puerto Rico/8/34 (H1N1); baseline: CC50 over IC50).
For c1nc(N2CCCCCC2)cnc1CNC12CC3CC(CC(C3)C1)C2, the EC50 was 1.9 µM (cytopathic effect; MDCK, A/WSN/33 H1N1; 48 h).

Excerpt of the above:
For COc1cc(-c2oc3cc(O[C@@H]4O[C@@H](C)[C@H](O)[C@@H](O)[C@H]4O)cc(O)c3c(=O)c2O[C@@H]2O[C@H](CO[C@@H]3O[C@@H](C)[C@H](O)[C@@H](O)[C@H]3O)[C@@H](O)[C@H](OC(C)=O)[C@H]2O)ccc1O, the IC50 was 152 ± 3 µM (hemagglutination; A/Vladivostok/2/09 (H1N1)).
The EC50 of OC12CC3CC(C1)CC(NCc1cnc(N4CCCCC4)nc1)(C3)C2 is reported as 4.5 ± 1.9 µM (plaque reduction; MDCK ST6Gal I, A/WSN/33 (H1N1); 2 days).
